Measurements of several laboratories.
Values joined by “and” are separate records of one study, mostly repeats; a detail may differ. ± marks the error that the study gave.
Sequence of UniProt A5GZW8 (whole entry, looked up): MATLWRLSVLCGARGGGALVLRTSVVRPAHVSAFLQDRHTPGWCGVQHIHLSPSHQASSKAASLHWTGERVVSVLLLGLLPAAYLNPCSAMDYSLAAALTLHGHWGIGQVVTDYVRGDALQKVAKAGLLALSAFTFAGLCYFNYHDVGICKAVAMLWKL
Sequence of UniProt D0VWV4 (whole entry, looked up): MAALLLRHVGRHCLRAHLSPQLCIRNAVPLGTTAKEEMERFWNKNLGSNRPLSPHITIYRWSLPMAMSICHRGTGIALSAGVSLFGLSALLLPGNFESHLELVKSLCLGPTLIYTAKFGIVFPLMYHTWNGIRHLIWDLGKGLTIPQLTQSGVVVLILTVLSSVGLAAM
Sequence of UniProt P10721 (whole entry, unmodified, looked up): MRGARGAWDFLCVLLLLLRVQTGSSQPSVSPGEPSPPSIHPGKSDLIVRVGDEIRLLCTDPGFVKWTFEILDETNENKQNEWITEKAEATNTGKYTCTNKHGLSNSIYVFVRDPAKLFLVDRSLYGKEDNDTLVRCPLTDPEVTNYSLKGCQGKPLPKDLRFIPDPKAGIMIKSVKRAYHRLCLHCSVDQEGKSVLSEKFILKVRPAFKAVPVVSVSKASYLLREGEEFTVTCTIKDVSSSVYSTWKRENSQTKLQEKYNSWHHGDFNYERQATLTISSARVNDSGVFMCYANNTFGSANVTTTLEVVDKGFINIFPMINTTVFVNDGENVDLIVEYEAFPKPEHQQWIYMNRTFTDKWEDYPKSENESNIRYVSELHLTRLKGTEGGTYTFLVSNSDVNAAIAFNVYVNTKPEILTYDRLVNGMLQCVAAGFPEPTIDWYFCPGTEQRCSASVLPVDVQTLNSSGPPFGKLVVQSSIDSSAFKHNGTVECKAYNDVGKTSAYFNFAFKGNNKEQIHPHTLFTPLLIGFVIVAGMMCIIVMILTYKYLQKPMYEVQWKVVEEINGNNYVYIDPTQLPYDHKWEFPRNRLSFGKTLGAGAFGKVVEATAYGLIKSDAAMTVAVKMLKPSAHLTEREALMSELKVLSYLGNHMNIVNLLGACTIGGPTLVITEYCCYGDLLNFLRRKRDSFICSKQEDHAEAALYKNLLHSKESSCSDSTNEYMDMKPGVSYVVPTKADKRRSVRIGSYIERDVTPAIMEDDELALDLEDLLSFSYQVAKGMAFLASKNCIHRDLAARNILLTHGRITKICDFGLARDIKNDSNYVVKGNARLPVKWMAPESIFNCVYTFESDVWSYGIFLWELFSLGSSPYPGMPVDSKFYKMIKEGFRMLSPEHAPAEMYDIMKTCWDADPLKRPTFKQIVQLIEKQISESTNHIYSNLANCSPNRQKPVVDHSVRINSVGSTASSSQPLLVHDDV
Sequence of UniProt Q007T0 (whole entry, looked up): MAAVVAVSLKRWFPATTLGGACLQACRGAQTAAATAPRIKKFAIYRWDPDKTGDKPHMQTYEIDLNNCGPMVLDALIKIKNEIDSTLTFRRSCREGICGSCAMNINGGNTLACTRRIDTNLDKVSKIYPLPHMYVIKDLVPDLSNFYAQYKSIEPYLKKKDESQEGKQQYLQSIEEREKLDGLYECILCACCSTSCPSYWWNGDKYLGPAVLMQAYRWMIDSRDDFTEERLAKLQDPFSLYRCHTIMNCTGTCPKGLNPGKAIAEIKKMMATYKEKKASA
Sequence of UniProt P20273 (whole entry, unmodified, looked up): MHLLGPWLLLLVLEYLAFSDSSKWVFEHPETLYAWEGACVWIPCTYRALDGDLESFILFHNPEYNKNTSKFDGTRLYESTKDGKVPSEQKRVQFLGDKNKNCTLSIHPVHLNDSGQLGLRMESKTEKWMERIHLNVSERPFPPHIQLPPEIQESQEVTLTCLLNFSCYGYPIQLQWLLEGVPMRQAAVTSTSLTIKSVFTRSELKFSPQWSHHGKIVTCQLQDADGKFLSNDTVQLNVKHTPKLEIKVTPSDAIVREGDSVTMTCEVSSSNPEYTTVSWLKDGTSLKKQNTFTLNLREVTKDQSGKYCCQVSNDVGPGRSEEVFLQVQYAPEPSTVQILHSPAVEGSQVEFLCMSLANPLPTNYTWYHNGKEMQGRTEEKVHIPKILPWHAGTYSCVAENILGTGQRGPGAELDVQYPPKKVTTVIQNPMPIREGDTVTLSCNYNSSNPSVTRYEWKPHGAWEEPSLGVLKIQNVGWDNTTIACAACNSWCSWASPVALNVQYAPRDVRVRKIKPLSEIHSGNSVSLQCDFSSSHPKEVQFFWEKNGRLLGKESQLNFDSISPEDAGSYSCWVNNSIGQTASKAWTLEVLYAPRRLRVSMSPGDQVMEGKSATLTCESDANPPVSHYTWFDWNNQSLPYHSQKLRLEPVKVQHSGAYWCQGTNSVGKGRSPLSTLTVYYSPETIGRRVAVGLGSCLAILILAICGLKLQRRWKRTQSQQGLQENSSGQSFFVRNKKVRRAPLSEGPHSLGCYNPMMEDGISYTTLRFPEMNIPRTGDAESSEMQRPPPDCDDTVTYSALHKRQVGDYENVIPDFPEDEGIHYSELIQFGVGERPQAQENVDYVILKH
Sequence of UniProt P33533 (whole entry, looked up): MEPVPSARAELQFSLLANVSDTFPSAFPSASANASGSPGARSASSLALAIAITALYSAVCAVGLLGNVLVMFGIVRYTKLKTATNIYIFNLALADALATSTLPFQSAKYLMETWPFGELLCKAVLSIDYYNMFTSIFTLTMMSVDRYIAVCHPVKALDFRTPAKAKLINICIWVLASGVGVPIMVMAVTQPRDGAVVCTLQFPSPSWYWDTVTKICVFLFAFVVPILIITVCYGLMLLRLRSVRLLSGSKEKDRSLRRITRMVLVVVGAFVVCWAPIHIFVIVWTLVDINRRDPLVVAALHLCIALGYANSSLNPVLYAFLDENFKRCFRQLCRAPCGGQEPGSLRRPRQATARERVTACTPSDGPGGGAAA
Sequence of UniProt P0A988 (whole entry, unmodified, looked up): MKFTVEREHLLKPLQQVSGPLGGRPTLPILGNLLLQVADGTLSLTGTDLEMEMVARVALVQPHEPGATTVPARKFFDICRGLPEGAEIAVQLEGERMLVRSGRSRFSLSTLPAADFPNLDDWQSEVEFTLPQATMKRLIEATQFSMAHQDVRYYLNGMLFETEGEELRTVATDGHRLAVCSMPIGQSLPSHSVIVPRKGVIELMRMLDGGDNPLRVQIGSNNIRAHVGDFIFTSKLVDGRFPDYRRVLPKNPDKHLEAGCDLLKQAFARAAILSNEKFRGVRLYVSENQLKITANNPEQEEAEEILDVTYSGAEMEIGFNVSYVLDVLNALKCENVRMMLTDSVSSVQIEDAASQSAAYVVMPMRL
Sequence of UniProt P08172 (whole entry, looked up): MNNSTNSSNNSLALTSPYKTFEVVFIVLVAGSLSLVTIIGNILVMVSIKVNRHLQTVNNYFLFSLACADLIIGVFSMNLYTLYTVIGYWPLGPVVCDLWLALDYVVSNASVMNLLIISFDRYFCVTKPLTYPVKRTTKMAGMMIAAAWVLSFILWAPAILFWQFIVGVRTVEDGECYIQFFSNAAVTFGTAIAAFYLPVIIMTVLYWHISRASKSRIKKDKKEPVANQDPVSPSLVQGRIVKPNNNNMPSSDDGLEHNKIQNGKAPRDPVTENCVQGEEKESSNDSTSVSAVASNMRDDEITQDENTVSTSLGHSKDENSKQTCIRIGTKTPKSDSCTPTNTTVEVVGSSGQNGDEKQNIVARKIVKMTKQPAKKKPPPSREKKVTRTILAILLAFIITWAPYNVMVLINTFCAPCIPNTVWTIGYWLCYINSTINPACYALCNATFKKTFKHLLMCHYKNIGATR
Sequence of UniProt Q6PE15 (whole entry, looked up): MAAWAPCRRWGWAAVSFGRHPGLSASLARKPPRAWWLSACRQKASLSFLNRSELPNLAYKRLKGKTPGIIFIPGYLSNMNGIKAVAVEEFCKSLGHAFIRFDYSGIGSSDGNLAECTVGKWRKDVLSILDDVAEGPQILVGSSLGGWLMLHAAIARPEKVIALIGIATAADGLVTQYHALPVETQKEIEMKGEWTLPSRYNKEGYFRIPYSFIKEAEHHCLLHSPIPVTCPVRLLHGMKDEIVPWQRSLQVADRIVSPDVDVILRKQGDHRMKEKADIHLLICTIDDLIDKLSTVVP
Sequence of UniProt O75676 (whole entry, looked up): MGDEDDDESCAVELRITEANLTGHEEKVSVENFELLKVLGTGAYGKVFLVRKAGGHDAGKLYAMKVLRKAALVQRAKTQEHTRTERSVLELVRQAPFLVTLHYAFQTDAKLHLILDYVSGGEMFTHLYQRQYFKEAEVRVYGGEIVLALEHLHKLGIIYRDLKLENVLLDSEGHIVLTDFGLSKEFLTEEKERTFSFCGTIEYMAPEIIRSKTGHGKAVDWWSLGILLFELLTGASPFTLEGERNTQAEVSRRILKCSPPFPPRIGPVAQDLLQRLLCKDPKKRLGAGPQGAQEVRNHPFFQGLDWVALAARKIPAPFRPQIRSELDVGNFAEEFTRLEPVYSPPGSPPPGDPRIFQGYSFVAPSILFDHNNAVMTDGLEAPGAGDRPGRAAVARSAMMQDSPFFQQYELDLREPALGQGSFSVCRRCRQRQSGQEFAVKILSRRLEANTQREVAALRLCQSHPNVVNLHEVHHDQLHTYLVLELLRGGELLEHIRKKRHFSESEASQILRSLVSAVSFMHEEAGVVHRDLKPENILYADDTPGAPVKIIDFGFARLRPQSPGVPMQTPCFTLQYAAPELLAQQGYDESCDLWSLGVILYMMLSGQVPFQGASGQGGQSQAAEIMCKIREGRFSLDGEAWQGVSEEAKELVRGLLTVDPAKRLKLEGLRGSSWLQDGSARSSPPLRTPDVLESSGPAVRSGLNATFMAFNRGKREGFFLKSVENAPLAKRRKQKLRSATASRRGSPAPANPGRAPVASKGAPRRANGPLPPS

SMILES	target or system	assay	system	setting	how to read	endpoint	result
CN(C)[C@H]1C[C@@]23CC[C@@]4(O2)C(=CC[C@]2(C)[C@@H](c5ccc6ccncc6c5)CC[C@H]24)C=C3[C@@H](O)[C@@H]1O	MAP4K5 (Homo sapiens, UniProt Q9Y4K4)	ATP probe labelling, inhibitor, KiNativ profiling	–	0.1 µM	–	inhibition	-6.8%
CC(C)(C)C(=O)OCOP(=O)(OCOC(=O)C(C)(C)C)C1CCCN(O)C1=O (stereo not drawn)	NCI-H226	–	–	–	–	log TGI	-5.02 log M
COc1ccccc1-c1n[nH]c2nc(NC3CCN(C(=O)Cc4ccc(F)cc4F)CC3)ncc12	–	bead binding, competition bead pull-down, refers to: LINJ.35.1420	Leishmania donovani extract	10 µM	relative to: vehicle	relative abundance	1
CC[C@H](C)[C@H](NC(=O)[C@H](CO)NC(=O)[C@H](Cc1ccc(O)cc1)NC(=O)[C@H](Cc1ccc(O)cc1)NC(=O)[C@H](CC(N)=O)NC(=O)CNC(=O)[C@H](CO)NC(=O)[C@H](Cc1ccc(O)cc1)NC(=O)[C@H](CO)NC(=O)[C@H](CO)NC(=O)[C@H](CC(N)=O)NC(=O)COCCOCCNC(=O)CN1CCN(CC(=O)O)CCN(CC(=O)O)CCN(CC(=O)O)CC1)C(=O)N[C@@H](CC(C)C)C(N)=O [copper-64 labelled]	–	dynamic PET	mouse, tamoxifen-induced PDAC, blood	intravenous, 0.1 µg/mouse, 12.5 min	–	tumour uptake	5.58 %ID/mL
O=C1NC(=O)c2c1c1cc(F)c[n+]3c1c1c2c2cc(O)ccc2[n]1[Ru-4]312([N]=C=S)[S+]3CC[S+]1CC[S+]2CC3 (stereo not drawn)	KIT (Homo sapiens, UniProt P10721, V560G)	enzyme activity	–	100 nM, human enzyme, added: 10 µM ATP	relative to: untreated	remaining activity	13%
CCO[C@H]1[C@H](O)[C@@H](N)[C@@H](O[C@H]2[C@H](O[C@@H]3O[C@H](CO)[C@@H](O[C@H]4O[C@@H](CN)[C@@H](O)[C@H](O)[C@H]4N)[C@H]3O)[C@@H](O)[C@H](N)C[C@@H]2N)O[C@@H]1CO	CHRM2 (Homo sapiens, UniProt P08172)	radioligand binding	–	10 µM, 1% DMSO	–	specific binding	0%
O=C1NC2(CC2)COc2ncc(F)cc2[C@H]2COCCN2c2ccn3ncc1c3n2	–	–	Sprague-Dawley rat, male, serum	oral, 2.5 mg/kg/day, 4 weeks daily, end of treatment	–	total cholesterol	1.31 ± 0.21 mmol/L
CC(C)CC(O)(CC(C)C)c1cn(C(=O)N2CCCC2)nn1	Palmitoyl-protein thioesterase ABHD10, mitochondrial (Mus musculus, UniProt Q6PE15)	probe labelling, inhibitor, refers to: Abhd10	mouse, brain	i.p., 0.8 mg/kg, 4 h, protein level	relative to: treated over vehicle mice, lower = stronger inhibition	activity ratio-of-ratios	2.71
Nc1ccc(/C=C/C(=O)N2CCc3c(oc4c(-c5ccc(F)cc5)cc(-c5ccc(C(=O)N6CCC(F)(F)CC6)cn5)cc34)C2)cn1	PIM3 (Homo sapiens, UniProt Q86V86)	binding, competition with immobilised ligand	–	1 µM	–	remaining binding	91%
CC(C)C[C@H](NC(=O)[C@H]1O[C@@H]1C(=O)O)C(=O)NCCCCN=C(N)N	Papain (Carica papaya, UniProt P00784)	enzyme activity, inhibitor	–	–	–	Hill slope	-1.36
COc1ccccc1-c1n[nH]c2nc(N[C@H]3CC[C@H](NS(=O)(=O)CC(C)C)CC3)ncc12	–	bead binding, competition bead pull-down, refers to: LINJ.34.0870	Leishmania donovani extract	10 µM	relative to: vehicle	relative abundance	1
CCNC(=S)NN=Cc1c2ccccc2cc2ccccc12.Cc1ccc(C(C)C)cc1.[Cl-].[Cl-].[Ru+2]	Albumin (ALB, Homo sapiens, UniProt P02768)	binding, fluorescence titration	human serum albumin	308 K	–	ΔG°	-7.22 kcal/mol
CC#CC(=O)NC[C@H](NC(=O)[C@H](CC1CCCCC1)NC(=O)[C@H](CCC(N)=O)NC(C)=O)C(=O)N[C@@H](CC(C)C)C(=O)N[C@@H](Cc1ccccc1)C(=O)O	Beta sliding clamp (Escherichia coli, UniProt P0A988, H175G)	isothermal titration calorimetry	–	25 °C	–	ΔG	-9.7 kcal/mol
Oc1ccc(C[C@@H]2CN([C@@H](CC3CCCCC3)CN3CCC[C@H]3CN3CCNC[C@@H]3Cc3ccc4ccccc4c3)CCN2CCC23CC4CC(CC(C4)C2)C3)cc1	Oprd1 (Rattus norvegicus, UniProt P33533)	radioligand binding	rat brain membranes	500 nM, pH 7.5, 25 °C, added: 2 nM [3H]DPDPE	–	remaining binding	84.3%
CS(C)(=O)=Nc1ccc(-c2ccc(-c3nc4cc(O[C@@H]5CO[C@H]6[C@@H]5OC[C@H]6O)[nH]c4cc3F)cc2)cc1	RPS6KA4 (Homo sapiens, UniProt O75676)	enzyme activity, inhibitor	–	10 µM	–	inhibition	-16%
O=C(CF)N[C@H]1[C@H]([C@H](O)[C@H](O)CNC(=O)c2ccc(-c3ccccc3)cc2)O[C@@](OCc2cccc(Cl)c2Cl)(C(=O)O)C[C@@H]1O	CD22 (Homo sapiens, UniProt P20273)	isothermal titration calorimetry	–	–	–	ΔH	-11.7 ± 0.18 kcal/mol
CON(C(=O)c1cn(C)nc1C(F)F)C(C)Cc1c(Cl)cc(Cl)cc1Cl (stereo not drawn)	SDHD/SDHC/SDHB (Sus scrofa, UniProt A5GZW8+D0VWV4+Q007T0)	enzyme activity, inhibitor, DCIP reduction	pig	1 µM, added: DCIP 80 µM	–	reaction velocity	0.00547 µM/s and 0.00654 µM/s
CC(C)[C@H]1NC(=O)C[C@H]2/C=C/CCSSC[C@@H](NC1=O)C(=O)N[C@H](Cc1cccc3ccccc13)C(=O)NCC(=O)O2	KIT (Homo sapiens, UniProt P10721, T670I)	enzyme activity, inhibitor	–	10 µM	–	inhibition	-6.8%

Some of these lines once more:
SMILES	target or system	assay	system	setting	how to read	endpoint	result
O=C1NC(=O)c2c1c1cc(F)c[n+]3c1c1c2c2cc(O)ccc2[n]1[Ru-4]312([N]=C=S)[S+]3CC[S+]1CC[S+]2CC3 (stereo not drawn)	KIT (Homo sapiens, UniProt P10721, V560G)	enzyme activity	–	100 nM, human enzyme, added: 10 µM ATP	relative to: untreated	remaining activity	13%
CCO[C@H]1[C@H](O)[C@@H](N)[C@@H](O[C@H]2[C@H](O[C@@H]3O[C@H](CO)[C@@H](O[C@H]4O[C@@H](CN)[C@@H](O)[C@H](O)[C@H]4N)[C@H]3O)[C@@H](O)[C@H](N)C[C@@H]2N)O[C@@H]1CO	CHRM2 (Homo sapiens, UniProt P08172)	radioligand binding	–	10 µM, 1% DMSO	–	specific binding	0%
O=C1NC2(CC2)COc2ncc(F)cc2[C@H]2COCCN2c2ccn3ncc1c3n2	–	–	Sprague-Dawley rat, male, serum	oral, 2.5 mg/kg/day, 4 weeks daily, end of treatment	–	total cholesterol	1.31 ± 0.21 mmol/L
